Results from different studies.
± marks the error that the study gave.

SMILES | cell line | assay | setting | scale | endpoint | result
CCCC[C@@H]1NC(=O)[C@@H](NC(=O)[C@H](CCC(=O)O)NC(=O)[C@H](CCC(=O)O)NC(C)=O)CCCCNC(=O)[C@@H](NC(=O)CN2CCN(CC(=O)O)CCN(CC(=O)O)CCN(CC(=O)O)CC2)CCCCNC(=O)[C@H](C(C)C)NC(=O)[C@@H]2CCCN2C(=O)[C@H](CCCNC(=N)N)NC(=O)CNC(=O)[C@H](Cc2c[nH]c3ccccc23)NC(=O)[C@H](CCCNC(=N)N)NC(=O)[C@@H](Cc2ccccc2)NC(=O)[C@H](Cc2c[nH]cn2)NC(=O)[C@H](CCC(=O)O)NC1=O [indium-111 labelled] | B16/F1 | – | concentration not given, 2 h | – | activity retained after efflux | 68.6 ± 1.43%
COc1cc(CNC(=O)C[C@H](C)CCC=C(C)C)ccc1OCc1cn(-c2ccccc2[N+](=O)[O-])nn1 | NCI-H226 | SRB | 10 µM, 48 h | – | growth percent | 56.9%
CC(=O)OC[C@H]1O[C@@H](Sc2sc(C(=O)c3ccc(Br)cc3)c(N)c2-c2nc3ccccc3s2)[C@H](OC(C)=O)[C@@H](OC(C)=O)[C@@H]1OC(C)=O | MDA-MB-435 | SRB | 10 µM, 48 h | relative to: untreated | growth | 80.7%
CCC(=C(c1ccc(Cl)cc1)c1ccc(OCCCN(C)C)cc1)c1ccc(OC)cc1 | SF-295 | cell growth or viability, SRB | – | – | GI50 | 0.92 µM
Cc1ccc(CN2C(=O)/C(=N\c3ccc(Cl)cc3Br)c3ccccc32)cc1 | RAW264.7 co-cultured with B16 | – | 1.5 µM | – | CD206-positive cells | 1.4%
COC(=O)[C@H]1[C@H]2C[C@H]3O[C@@]4(CCN3C[C@H]2C[C@@H](OC(=O)c2cc(OC)c(OC)c(OC)c2)[C@@H]1OC)C(=O)Nc1cc(OC)c(-c2ccc(F)cc2)cc14 | RS4;11 | annexin V/PI flow cytometry | 10 µM, 72 h | – | late apoptotic cells | 53.7 ± 30.2%
CC(C)[C@H](NC(=O)[C@@H]1CCCN1C(=O)[C@H](CCCNC(=N)N)NC(=O)[C@H](CS)NC(=O)[C@H](Cc1c[nH]c2ccccc12)NC(=O)[C@H](CCCNC(=N)N)NC(=O)[C@@H](Cc1ccccc1)NC(=O)[C@H](Cc1c[nH]cn1)NC(=O)[C@H](CCC(=O)O)NC(=O)[C@H](CS)NC(=O)[C@H](CS)NC(=O)CCNC(=O)[C@@H]1CC(=O)N[C@@H](CCCNC(=N)N)C(=O)NCC(=O)N[C@@H](CC(=O)O)C(=O)N[C@H](Cc2ccc(O)cc2)C(=O)N1)C(N)=O | B16/F1 | – | 0.1 µM, 3 h, 37 °C, read 5 days later | relative to: untreated | survival decrease | 71%
O=C(Nc1ccc(C(F)(F)F)cc1Cl)c1cc(Cl)ccc1O | CWR22Rv1 cells | total cell number | 0.5 µM, 5 days | – | cell growth | decreased
COc1cc(CNC(=O)C[C@H](C)CCC=C(C)C)ccc1OCc1cn(-c2ccc(Br)cc2)nn1 | NCI-H226 | SRB | 10 µM, 48 h | – | growth percent | 70.2%
COc1ccc([C@@H]2CC(=O)c3c(O)cc(O[C@@H]4O[C@H](CO[C@@H]5O[C@@H](C)[C@H](O)[C@@H](O)[C@H]5O)[C@@H](O)[C@H](O)[C@H]4O)cc3O2)cc1O | A549 | Matrigel Transwell invasion | 100 µg/mL, 48 h | – | invasion | 37.1 ± 6.26%
COc1cc(CNC(=O)C[C@H](C)CCC=C(C)C)ccc1OCc1cn(-c2ccc(C#N)cc2)nn1 | K562 leukaemia cells | SRB | 10 µM, 48 h | – | growth percent | 47.6%
O=Cc1c(O)ccc2ccccc12 | HUVEC | RNA sequencing, item: FAM111B | 75 µM, 24 h | relative to: DMSO | log2 fold change | -4.71
COc1ccc([C@@H]2CC(=O)c3c(O)cc(O[C@@H]4O[C@H](CO[C@@H]5O[C@@H](C)[C@H](O)[C@@H](O)[C@H]5O)[C@@H](O[C@H]5O[C@H](CO)[C@@H](O)[C@H](O)[C@H]5O)[C@H](O)[C@H]4O)cc3O2)cc1O | A549 | Matrigel Transwell invasion | 50 µg/mL, 48 h | – | invasion | 32.5 ± 4.76%
C=C(CC)C(=O)c1ccc(OCC(=O)NCCNC(=O)COc2ccc(C(=O)C(=C)CC)c(Cl)c2Cl)c(Cl)c1Cl | A549/DDP | cell growth, CCK-8 | 72 h | – | IC10 | ~0.5 µM
COc1cc(CNC(=O)C[C@H](C)CCC=C(C)C)ccc1OCc1cn(-c2cccc([N+](=O)[O-])c2)nn1 | NCI-H226 | SRB | 10 µM, 48 h | – | growth percent | 73.5%
O=C1Nc2ccc(Cl)cc2C1=Cc1c(Cl)[nH]c2c1ccc1ccccc12 | renal cancer subpanel of NCI-60 | – | 48 h | – | TGI | 8.51 µM
O=C(N1CCCC1)n1cc(-c2ccc(-c3ccccc3)cc2)nn1 | mouse T-cells | N-terminal labeled proteins, N-terminal enrichment proteomics, item: TMSB4X | 1 nM, 6 h | relative to: DMSO | SILAC ratio | 0.89 ± 0.17
NCCCCCO[C@H]1O[C@H](COS(=O)(=O)O)[C@@H](O[C@@H]2O[C@@H](C(=O)O)[C@@H](O[C@H]3O[C@H](COS(=O)(=O)O)[C@@H](O[C@@H]4O[C@@H](C(=O)O)[C@@H](O[C@H]5O[C@H](COS(=O)(=O)O)[C@@H](O[C@@H]6O[C@@H](C(=O)O)[C@@H](O)[C@H](O)[C@H]6OS(=O)(=O)O)[C@H](O)[C@H]5NS(=O)(=O)O)[C@H](O)[C@H]4OS(=O)(=O)O)[C@H](O)[C@H]3NS(=O)(=O)O)[C@H](O)[C@H]2OS(=O)(=O)O)[C@H](O)[C@H]1NS(=O)(=O)O | human corneal epithelial cells | flow cytometry | concentration not given | – | cell surface heparan sulfate | no effect

SMILES | cell line | assay | setting | scale | endpoint | result
O=S(=O)(CCC(F)(F)F)Nc1ccc(Oc2ncccc2-c2ccnc(N[C@H]3CCCNC3)n2)c2ccccc12 | INS1 with Dox-inducible IRE1α | inhibitor, RNA-Seq | 20 µM, 4 h, added: doxycycline 5 ng/mL | – | XBP1 mRNA splicing | inhibited
C=C1C(=O)OC2C=C(C)CCC=C(C(=O)OC(C)C(C)(O)C(=O)OC3C(OC(C)=O)C(C(=O)OC)=CCCC(C)=CC4OC(=O)C(=C)C43)CC(OC(=O)C(C)=CC)C12 (centres unmarked) | HeLa | PI staining flow cytometry | 3 µM, 48 h | – | G2/M phase cells | 38.1%
CC(=O)OC[C@H]1O[C@@H](Sc2sc(C(=O)c3ccc(C)cc3)c(N)c2-c2nc3ccccc3s2)[C@H](OC(C)=O)[C@@H](OC(C)=O)[C@H]1OC(C)=O | NCI-H226 | SRB | 10 µM, 48 h | relative to: untreated | growth | 49.8%
C[n+]1ccc(/C=N/NC(=O)c2cccc(C(=O)N/N=C/c3cc[n+](C)c4ccccc34)n2)c2ccccc21 | A549 cisplatin-resistant | CellTiter-Glo | 96 h | – | GI50 | 57.1 ± 6.5 µM
C[C@H](CC(=O)C[C@@H](C)[C@H]1C[C@H](O)[C@@]2(C)C3=C(C(=O)C[C@]12C)[C@@]1(C)CCC(=O)C(C)(C)[C@@H]1C[C@@H]3O)C(=O)O | 3T3-L1 adipocytes | – | 6.25 µg/mL | – | glucose consumption | 11.3 ± 0.72 mmol/L
CC(C)=CCc1cc([C@@H]2CC(=O)c3c(O)cc(O)c(CC=C(C)C)c3O2)cc(CC=C(C)C)c1O | 3T3-L1 adipocytes | activator | up to 100 µM | – | glucose consumption | inactive
COc1cc(CNC(=O)C[C@H](C)CCC=C(C)C)ccc1OCc1cn(-c2ccc(F)cc2)nn1 | UACC-62 melanoma cells | SRB | 10 µM, 48 h | – | growth percent | 64.4%
COc1ccc2c(c1)/C(=N\Nc1nnc3n1N=C(c1ccccc1)CS3)C(=O)N2 | SNB-75 | cell growth or viability, SRB | 10 µM | – | inhibition | 17%
COc1ccc(S(=O)(=O)N(CC(=O)O)c2c(C)c(C)c(N(CC(=O)O)S(=O)(=O)c3cccnc3)c(C)c2C)cc1 | H9c2 | ELISA | 10 µM, added: LPS 1 µg/mL | – | IL-6 secretion | decreased
CCN(CC)CC(=O)Nc1cccc(-n2cc(-c3ccc4ccc(-c5cn(-c6cccc(NC(=O)CN(CC)CC)c6)nn5)cc4c3)nn2)c1 | RCC4 | qRT-PCR, item: HIF-1α | 1 x IC50 | relative to: untreated | mRNA level | 29.2%
C[C@@H](C(=O)Nc1ccc(Cn2cc(C(F)(F)F)ccc2=O)cc1)N(C)C | NIH3T3 | cell growth or viability, CCK-8 | 1 mM | – | inhibition | 64.2%
Cc1cc([C@H](C(=O)N2C[C@H](O)C[C@H]2C(=O)N[C@@H](CC(=O)N2CCC(N3CCC(C#Cc4ccc(C(=O)N[C@H]5C(C)(C)[C@H](Oc6ccc(C#N)c(Cl)c6)C5(C)C)cc4)CC3)CC2)c2ccc(-c3scnc3C)cc2)C(C)C)on1 | MDA-MB-453 | inhibition of increase, item: c-Myc | 24 h, added: R1881 | – | effective concentration | 1 nM
CC(=O)N[C@H](C(=O)N[C@H](C(=O)N[C@@H](CCCNC(=N)N)C(=O)N1Cc2ccccc2C[C@H]1C(=O)N[C@@H](Cc1ccccc1)C(N)=O)C1CCCCC1)C(C)C | MBP-specific BC-3 T cells | Bio-Plex multiplex, item: IL-4 | 200 µg/mL, 24 h, added: MBP87-99 antigen | – | cytokine level | 2.5 ± 0.9 pg/mL
O=C(O)CCC(NP(=O)(O)OCCC[C@@H](NC(=O)CC[C@H](NC(=O)CCCCCNC(=O)c1ccc([18F])cc1)C(=O)O)C(=O)O)C(=O)O (some centres unmarked) | LNCaP, CWR22Rv1 | – | concentration not given, 1 h | relative to: LNCaP over CWR22Rv1 | uptake ratio | 9.8 fold
COc1cc2c(OC3OCC(OC)C(OC)C3OC(=O)c3ccc(Br)cc3)c3c(c(-c4ccc5c(c4)OCO5)c2cc1OC)C(=O)OC3 (centres unmarked) | FaDu | transwell | 0.1 and 1 µM, 36 h | relative to: DMSO | migrating cells | decreased
CNC(=O)c1c(C)oc2cc(Oc3ncnc4cc(OC)c(OCCCCCCC(=O)NO)cc34)ccc12 | HeLa | PI staining flow cytometry | 3 µM, 48 h | – | cells in S phase | 23.5%
CC(C)CCOc1cc(C[n+]2cn(CCC(C)C)c3ccccc32)c(OCCC(C)C)c2ccccc12 | HeLa | qRT-PCR, item: PCNA mRNA | 10 µM | relative to: control | inhibition | 50%
